Assay results from different studies.
Lines come from different studies, so protocols differ. ± gives the spread as reported. Ends that are not written are not given here. No end group written: not given here. *: point of attachment.
B1: CyaY 1-106 (Escherichia coli, UniProt P27838); chain MNDSEFHRLADQLWLTIEERLDDWDGDSDIDCEINGGVLTITFENGSKIIINRQEPLHQVWLATKQGGYHFDLKGDEWICDRSGETFWDLLEQAATQQAGETVSFR
B2: wzb (Escherichia coli, UniProt P0AAB2); chain MFNNILVVCVGNICRSPTAERLLQRYHPELKVESAGLGALVGKGADPTAISVAAEHQLSLEGHCARQISRRLCRNYDLILTMEKRHIERLCEMAPEMRGKVMLFGHWDNECEIPDPYRKSRETFAAVYTLLERSARQWAQALNAEQV
B3: LY96 LOS-bound (Homo sapiens, UniProt Q9Y6Y9); sequence looked up; chain QKQYWVCNSSDASISYTYCDKMQYPISINVNPCIELKRSKGLLHIFYIPRRDLKQLYFNLYITVNTMNLPKRKEVICRGSDDDYSFCRALKGETVNTTISFSFKGIKFSKGKYKCVVEAISGSPEEMLFCLEFVILHQPNSN
B4: lexA 81-204 S125A (Pseudomonas aeruginosa, UniProt P37452); FlAsH-labeled tetracysteine tag; sequence looked up; chain GLPVIGRVAAGAPILAEQNIEESCRINPAFFNPRADYLLRVRGMAMKDIGILDGDLLAVHVTREARNGQVVVARIGEEVTVKRFKREGSKVWLLAENPEFAPIEVDLKEQELIIEGLSVGVIRR
B5: FBLN5 288-448 (Homo sapiens, UniProt Q9UBX5); chain DINECEHRNHTCNLQQTCYNLQGGFKCIDPIRCEEPYLRISDNRCMCPAENPGCRDQPFTILYRDMDVVSGRSVPADIFQMQATTRYPGAYYIFQIKSGNEGREFYMRQTGPISATLVMTRPIKGPREIQLDLEMITVNTVINFRGSSVIRLRIYVSQYPF
Sequence of UniProt Q9KWN0 (whole entry, looked up): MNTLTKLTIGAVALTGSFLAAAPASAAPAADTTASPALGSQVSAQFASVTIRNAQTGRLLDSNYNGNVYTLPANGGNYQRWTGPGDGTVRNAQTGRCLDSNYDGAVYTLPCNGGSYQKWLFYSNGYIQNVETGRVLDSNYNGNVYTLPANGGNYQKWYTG
Sequence of UniProt P35555 (whole entry, looked up): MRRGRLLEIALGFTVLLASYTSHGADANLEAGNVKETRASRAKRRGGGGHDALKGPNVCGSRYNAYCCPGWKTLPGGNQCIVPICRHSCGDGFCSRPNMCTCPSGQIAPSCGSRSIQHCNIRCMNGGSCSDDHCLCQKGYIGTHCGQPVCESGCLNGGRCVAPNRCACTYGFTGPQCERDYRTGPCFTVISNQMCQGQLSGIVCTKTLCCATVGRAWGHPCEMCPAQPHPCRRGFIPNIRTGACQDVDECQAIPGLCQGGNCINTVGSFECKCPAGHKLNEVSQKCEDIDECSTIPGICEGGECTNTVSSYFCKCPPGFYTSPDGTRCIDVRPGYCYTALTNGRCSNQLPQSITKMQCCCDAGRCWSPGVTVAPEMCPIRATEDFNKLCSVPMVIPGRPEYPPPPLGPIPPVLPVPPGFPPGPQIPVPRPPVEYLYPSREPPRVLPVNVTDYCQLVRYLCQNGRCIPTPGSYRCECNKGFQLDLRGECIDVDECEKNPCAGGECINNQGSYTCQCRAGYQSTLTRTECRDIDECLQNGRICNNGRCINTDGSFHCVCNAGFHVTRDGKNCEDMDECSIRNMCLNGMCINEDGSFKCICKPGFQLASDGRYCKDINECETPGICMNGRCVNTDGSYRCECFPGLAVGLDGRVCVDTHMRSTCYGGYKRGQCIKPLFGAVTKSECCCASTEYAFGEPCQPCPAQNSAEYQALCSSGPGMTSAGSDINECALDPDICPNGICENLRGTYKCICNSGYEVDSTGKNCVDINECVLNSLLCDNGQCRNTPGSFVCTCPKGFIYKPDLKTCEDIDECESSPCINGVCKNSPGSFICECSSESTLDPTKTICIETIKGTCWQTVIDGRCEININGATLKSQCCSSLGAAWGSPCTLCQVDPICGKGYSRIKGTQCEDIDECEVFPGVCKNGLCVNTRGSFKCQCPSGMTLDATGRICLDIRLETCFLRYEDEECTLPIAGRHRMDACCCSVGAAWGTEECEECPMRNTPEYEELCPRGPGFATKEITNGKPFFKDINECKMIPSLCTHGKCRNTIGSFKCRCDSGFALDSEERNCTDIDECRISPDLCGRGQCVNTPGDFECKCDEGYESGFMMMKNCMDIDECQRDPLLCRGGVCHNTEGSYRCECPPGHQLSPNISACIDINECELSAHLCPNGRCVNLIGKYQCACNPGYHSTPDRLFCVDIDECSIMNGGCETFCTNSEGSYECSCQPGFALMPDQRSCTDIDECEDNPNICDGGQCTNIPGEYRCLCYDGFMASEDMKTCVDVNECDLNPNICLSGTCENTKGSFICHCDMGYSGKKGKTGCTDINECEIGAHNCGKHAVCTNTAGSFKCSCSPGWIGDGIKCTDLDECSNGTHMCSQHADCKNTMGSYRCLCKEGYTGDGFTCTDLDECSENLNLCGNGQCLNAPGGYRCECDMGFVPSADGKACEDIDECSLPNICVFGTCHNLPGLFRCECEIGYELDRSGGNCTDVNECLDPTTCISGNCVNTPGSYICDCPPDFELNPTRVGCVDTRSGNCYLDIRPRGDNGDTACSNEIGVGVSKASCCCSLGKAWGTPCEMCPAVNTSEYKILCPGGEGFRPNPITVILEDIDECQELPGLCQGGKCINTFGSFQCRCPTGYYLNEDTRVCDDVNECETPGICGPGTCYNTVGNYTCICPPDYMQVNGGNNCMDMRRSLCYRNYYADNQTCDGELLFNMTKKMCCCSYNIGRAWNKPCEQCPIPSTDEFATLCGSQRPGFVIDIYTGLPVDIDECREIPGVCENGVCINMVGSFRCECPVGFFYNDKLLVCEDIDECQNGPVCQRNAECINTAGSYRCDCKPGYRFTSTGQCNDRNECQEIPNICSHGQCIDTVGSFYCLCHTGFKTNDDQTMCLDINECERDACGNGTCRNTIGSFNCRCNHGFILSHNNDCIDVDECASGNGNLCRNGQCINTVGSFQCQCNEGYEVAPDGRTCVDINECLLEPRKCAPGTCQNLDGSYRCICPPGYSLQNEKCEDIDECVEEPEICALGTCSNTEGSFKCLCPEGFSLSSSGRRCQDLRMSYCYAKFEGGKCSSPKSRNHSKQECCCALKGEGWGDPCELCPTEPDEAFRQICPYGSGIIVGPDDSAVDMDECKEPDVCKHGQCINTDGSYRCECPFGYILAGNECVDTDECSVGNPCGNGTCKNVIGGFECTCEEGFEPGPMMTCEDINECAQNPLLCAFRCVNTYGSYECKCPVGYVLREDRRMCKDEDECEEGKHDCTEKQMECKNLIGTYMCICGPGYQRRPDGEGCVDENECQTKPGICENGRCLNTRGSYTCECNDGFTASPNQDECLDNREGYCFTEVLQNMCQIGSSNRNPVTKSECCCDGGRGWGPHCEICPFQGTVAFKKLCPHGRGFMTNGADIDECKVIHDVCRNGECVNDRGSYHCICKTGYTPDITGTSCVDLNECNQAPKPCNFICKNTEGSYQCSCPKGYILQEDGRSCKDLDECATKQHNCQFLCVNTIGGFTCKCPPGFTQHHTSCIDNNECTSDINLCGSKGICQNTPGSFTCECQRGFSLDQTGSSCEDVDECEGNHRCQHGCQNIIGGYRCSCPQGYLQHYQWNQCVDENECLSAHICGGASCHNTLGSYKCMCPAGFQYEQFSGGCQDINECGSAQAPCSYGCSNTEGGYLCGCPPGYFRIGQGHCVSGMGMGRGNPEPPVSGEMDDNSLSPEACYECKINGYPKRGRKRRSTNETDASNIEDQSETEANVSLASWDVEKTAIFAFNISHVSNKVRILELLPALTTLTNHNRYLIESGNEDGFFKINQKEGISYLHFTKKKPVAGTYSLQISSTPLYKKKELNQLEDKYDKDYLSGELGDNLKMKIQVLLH
Sequence of UniProt O00206 (whole entry, looked up): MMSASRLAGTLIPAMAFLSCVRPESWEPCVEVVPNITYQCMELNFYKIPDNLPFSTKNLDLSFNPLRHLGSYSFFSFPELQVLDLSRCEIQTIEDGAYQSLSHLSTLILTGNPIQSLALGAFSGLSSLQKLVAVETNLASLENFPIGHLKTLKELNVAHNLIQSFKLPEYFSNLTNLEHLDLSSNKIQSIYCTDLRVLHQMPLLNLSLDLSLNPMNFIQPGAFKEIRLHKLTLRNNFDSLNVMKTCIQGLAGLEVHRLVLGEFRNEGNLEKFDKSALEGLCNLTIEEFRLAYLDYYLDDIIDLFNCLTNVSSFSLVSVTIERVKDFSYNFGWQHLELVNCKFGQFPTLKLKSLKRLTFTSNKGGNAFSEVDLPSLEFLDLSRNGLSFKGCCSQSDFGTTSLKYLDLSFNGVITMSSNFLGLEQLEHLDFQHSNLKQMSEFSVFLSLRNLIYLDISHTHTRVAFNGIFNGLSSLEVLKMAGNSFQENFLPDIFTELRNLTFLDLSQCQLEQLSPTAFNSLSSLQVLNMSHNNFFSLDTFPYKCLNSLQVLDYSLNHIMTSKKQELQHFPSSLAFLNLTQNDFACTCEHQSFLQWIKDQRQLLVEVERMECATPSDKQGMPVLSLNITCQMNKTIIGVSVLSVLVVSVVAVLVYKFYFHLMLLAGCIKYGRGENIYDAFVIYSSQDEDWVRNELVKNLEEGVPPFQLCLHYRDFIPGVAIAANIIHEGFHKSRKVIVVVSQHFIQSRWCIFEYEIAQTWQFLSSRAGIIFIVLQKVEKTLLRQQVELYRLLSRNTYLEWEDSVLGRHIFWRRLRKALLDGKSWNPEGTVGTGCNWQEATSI
Sequence of UniProt P26151 (whole entry, looked up): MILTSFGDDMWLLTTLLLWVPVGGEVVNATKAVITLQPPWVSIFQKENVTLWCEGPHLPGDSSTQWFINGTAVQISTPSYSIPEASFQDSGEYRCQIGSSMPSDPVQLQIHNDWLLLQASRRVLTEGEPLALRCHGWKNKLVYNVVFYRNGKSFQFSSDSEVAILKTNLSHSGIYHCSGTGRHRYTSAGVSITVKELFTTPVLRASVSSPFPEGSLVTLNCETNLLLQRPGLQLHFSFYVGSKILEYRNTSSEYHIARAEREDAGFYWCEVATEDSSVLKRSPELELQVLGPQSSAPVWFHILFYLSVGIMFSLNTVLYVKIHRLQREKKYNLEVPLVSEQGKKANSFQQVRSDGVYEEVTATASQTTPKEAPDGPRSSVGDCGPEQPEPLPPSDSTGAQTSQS
Sequence of UniProt P76387 (whole entry, unmodified, looked up): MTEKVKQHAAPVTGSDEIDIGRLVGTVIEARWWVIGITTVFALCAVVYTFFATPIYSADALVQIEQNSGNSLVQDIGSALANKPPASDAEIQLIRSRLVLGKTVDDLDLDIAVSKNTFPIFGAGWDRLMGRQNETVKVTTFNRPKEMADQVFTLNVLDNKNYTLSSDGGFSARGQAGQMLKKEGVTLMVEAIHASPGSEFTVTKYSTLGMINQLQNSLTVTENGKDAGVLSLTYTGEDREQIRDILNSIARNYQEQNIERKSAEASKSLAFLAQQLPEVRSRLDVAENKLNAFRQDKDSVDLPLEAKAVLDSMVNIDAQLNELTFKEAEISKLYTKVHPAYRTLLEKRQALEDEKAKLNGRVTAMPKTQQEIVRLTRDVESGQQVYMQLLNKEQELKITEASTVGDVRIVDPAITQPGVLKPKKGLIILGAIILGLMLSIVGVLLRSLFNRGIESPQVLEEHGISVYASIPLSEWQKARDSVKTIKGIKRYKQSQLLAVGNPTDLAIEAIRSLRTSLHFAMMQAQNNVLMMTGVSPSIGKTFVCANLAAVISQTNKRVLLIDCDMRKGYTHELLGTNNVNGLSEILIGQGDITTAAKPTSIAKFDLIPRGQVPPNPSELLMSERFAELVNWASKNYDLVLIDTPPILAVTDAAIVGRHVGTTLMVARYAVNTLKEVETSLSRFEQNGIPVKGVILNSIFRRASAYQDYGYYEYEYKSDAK

| Substance | partner | assay | system | setting | Kd [nM] |
| --- | --- | --- | --- | --- | --- |
| B1 (CyaY 1-106) | IscS/IscU 1-404 (Escherichia coli) | BLI |  | pH 7.5, 25 °C, NaCl 150 mM, together with: IscU 10 µM | 35 ± 6 |
| Fcgr1 (Mus musculus, UniProt P26151) | Ighg3 Fc domain, C-terminal CGS-21680 conjugate (Mus musculus) | SPR |  |  | 388 ± 67 |
| B2 (wzb) | wzc 447-704 (Escherichia coli, UniProt P76387) | NMR titration |  | 25 °C, apparent | 8600 ± 600 |
| B3 (LY96 LOS-bound) | TLR4 (Homo sapiens, UniProt O00206) | radioligand binding | HEK293T | 30 min, 37 °C | 0.528 ± 0.1 |
| FCGRT (UniProt P55899) | protein Fc fusion, IgG1 (Homo sapiens, UniProt Q9KWN0) | SPR |  |  | 60 |
| B4 (lexA 81-204 S125A) | recA ssDNA/ATPγS-bound filament (Pseudomonas aeruginosa, UniProt P08280) | fluorescence polarisation |  | 37 °C, apparent, together with: ATPγS | 390 ± 50 |
| {FITC-Ahx}-LWGFLSRNKKPRICTREEF (NS5 NLS central peptide (dengue virus 1); N-terminal FITC, AHX linker; FITC = O=C1OC2(c3ccc(O)cc3Oc3cc(O)ccc32)c2ccc(NC(=S)*)cc21; Ahx = NCCCCCC(=O)O) | KPNA6 fragment (Homo sapiens) | fluorescence polarisation | peptide | pH 8, one-site fit | 360 ± 40 |
| B5 (FBLN5 288-448) | FBN1 31-489 (Homo sapiens, UniProt P35555) | ELISA |  |  | 187 ± 31 |
| ATTO488-QMVRMILKIDDIRKPGESEE (CCT5 peptide 522-541 (Homo sapiens, UniProt P48643); N-terminal ATTO488 label) | DDB1/DCAF12 1-1140 (Homo sapiens) | TR-FRET | peptide | pH 7.4, NaCl 200 mM, equimolar binding assumed | 245 ± 52 |
